{"data": "Measurements collected from several papers", "note": "Numbered parts are unrelated; each lists some results of a single study. Substitutions count along the parent as printed."}
{"data": "Sample 1", "target": "RNA binding protein fox-1 homolog 2, RRM domain, GST-SBP tag (RBFOX2, Homo sapiens, UniProt O43251-10, residues 100-194)", "method": "RNA Bind-n-Seq", "form": "RNA", "medium": "in vitro", "tested at": "365 nM", "setting": "natural RNA segment, single round, ends assumed", "reference": "no-protein control", "reading": "higher = stronger binding", "all sequences stand within": "GGGAGUUCUACAGUCCGACGAUC … UGGAAUUCUCGGGUGCCAA", "Construct (chain)": "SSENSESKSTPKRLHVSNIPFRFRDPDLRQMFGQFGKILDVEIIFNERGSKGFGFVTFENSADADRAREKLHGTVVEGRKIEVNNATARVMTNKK"}
{"Oligonucleotide": "CUUCUCCAUGUAGUUCCUCUCCUACAAGCCAGGUGGAUUCUGGUCCUAACUAAAGAGAUGGGAGUUCACCUGAGGGCAAGAAGUACCCAGGAUGCCCAAACAGCCGCACA", "RBNS enrichment (R)": 0.291}
{"Oligonucleotide": "CUGGGGCAUGGGCUGAGCAAGUAUUUGUGUGGUCAAGGAAGUGCUAUGCCAACAUCUCCCAUUGGAAACAGGGUUUCUCCUCCUUGCUUCAUCAGAGCCAACCUUUGAUA", "RBNS enrichment (R)": 0.486}
{"Oligonucleotide": "AAUUCCAAAAUCUCGAGGAAGCUAGAAAACACAAUCCUGUGGCAGUAAGACAUUCUCCAGUGUUCAGCUUUAGGGAUUUUCUAUUUGGCAGCCAUAGGCAAUGCUUAUUU", "RBNS enrichment (R)": 0.283}
{"Oligonucleotide": "AGUCUUUAUGAUAACCUAAUUUUUAAAAAUGAAUUUGACUAACUUAAGUGCAAAACAUGUAAAUUUGGUUCCCAGAGUGGGCCAAUCUCUCUGUUCUUGUUAUCUUAGCC", "RBNS enrichment (R)": 0.578}
{"Oligonucleotide": "CCUGCCCGGUGCCUCCCACUGACCUGAGCUUACUAAGGGAUGGCAGCAGCUCCCCAGAAAAAAACGACACUGCGAGCCCUCGGGACAUGACUGAGUUCCACCUCCUGAAG", "RBNS enrichment (R)": 0.477}
{"Oligonucleotide": "CGCCGCCCUGCGGUUGGGCCGGUGGAGGCCCAGGCGUUGCUAGGAUUGCAUCAGUUUUCCUGUUUGCACUAUUUCUUUUUGUAACAUUGGCCCUGUGUGAAGUAUUUCGA", "RBNS enrichment (R)": 0.685}
{"Oligonucleotide": "GUGACCUUUUGUCCUUUACCUGAUUGGCACUUCGCAGUCUAUCUCCCUGGGUAGCAGACGGCUGCUGCCCUUCUCUGGGCAUGUUCUGAAUGUUUACACUGGUACCUUCU", "RBNS enrichment (R)": 3.24}
{"Oligonucleotide": "UGGAACGUGCCCCAGAAUGAGGCAGUUGGCAAACUUCUCAGGACAAUGAAUCCUUCCCGUUUUUCUUUUUAUGCCACACAGUGCAUUGUUUUUUCUACCUGCUUGUCUUA", "RBNS enrichment (R)": 1.67}
{"data": "Sample 2", "target": "Sal-like protein 4, full length isoform A (SALL4, Homo sapiens, UniProt Q9UJQ4, residues 1-1053)", "method": "universal PBM", "form": "double-stranded DNA, one strand shown", "medium": "in vitro", "tested at": "600 nM", "setting": "8-mer, flanks averaged, mean of replicates", "reading": "higher = stronger binding", "chain of UniProt Q9UJQ4 (whole entry, looked up)": "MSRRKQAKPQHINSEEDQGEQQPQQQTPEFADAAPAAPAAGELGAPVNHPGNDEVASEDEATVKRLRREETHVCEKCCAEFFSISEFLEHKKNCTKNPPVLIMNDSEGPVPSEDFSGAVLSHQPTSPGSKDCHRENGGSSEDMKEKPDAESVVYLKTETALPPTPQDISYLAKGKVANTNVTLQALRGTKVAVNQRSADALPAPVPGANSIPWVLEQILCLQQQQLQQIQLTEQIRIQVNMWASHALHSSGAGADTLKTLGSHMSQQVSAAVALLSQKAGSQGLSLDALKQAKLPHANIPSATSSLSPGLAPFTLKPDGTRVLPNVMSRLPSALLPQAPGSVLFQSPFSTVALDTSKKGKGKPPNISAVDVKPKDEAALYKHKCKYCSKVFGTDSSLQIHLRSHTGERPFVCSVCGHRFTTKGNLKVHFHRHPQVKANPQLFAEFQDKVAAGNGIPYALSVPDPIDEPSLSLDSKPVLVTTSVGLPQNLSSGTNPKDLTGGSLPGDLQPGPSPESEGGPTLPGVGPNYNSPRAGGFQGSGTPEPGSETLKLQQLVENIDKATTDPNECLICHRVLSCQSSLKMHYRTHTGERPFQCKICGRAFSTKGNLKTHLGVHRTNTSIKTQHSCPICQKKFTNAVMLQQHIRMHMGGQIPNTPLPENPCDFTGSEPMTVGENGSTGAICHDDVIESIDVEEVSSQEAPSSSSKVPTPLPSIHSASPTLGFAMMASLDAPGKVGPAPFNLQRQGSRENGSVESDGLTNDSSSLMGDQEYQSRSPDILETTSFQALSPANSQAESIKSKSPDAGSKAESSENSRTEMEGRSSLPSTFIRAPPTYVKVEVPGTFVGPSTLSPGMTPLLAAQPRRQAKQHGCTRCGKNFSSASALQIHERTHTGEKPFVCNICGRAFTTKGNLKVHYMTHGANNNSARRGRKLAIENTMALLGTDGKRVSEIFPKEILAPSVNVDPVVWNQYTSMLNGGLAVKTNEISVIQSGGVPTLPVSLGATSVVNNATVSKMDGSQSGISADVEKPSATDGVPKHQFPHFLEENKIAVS"}
{"Oligonucleotide": "CAAGGGCG", "E-score": -0.242}
{"Oligonucleotide": "CTACCCAG", "E-score": -0.105}
{"Oligonucleotide": "CTGCTACA", "E-score": -0.0289}
{"Oligonucleotide": "TAAAGCCA", "E-score": 0.174}
{"Oligonucleotide": "ACTATAGA", "E-score": 0.253}
{"Oligonucleotide": "ACACAGGG", "E-score": -0.184}
{"Oligonucleotide": "CGGCCGAA", "E-score": -0.194}
{"Oligonucleotide": "GCACTACA", "E-score": -0.0241}
{"Oligonucleotide": "CGCTGCAG", "E-score": -0.223}
{"Oligonucleotide": "ACCAGGCA", "E-score": -0.197}
{"Oligonucleotide": "ATAGCTGG", "E-score": -0.125}
{"Oligonucleotide": "TGTCAGAA", "E-score": 0.109}
{"Oligonucleotide": "CCGTGACA", "E-score": -0.0321}
{"Oligonucleotide": "AGAATACC", "E-score": 0.103}
{"Oligonucleotide": "CACCTTCC", "E-score": -0.203}
{"Oligonucleotide": "CAGATGAC", "E-score": -0.0417}
{"Oligonucleotide": "CCGCTTTA", "E-score": 0.0502}
{"Oligonucleotide": "CTCTAGAA", "E-score": 0.0117}
{"Oligonucleotide": "CGCGCGTC", "E-score": -0.181}
{"Oligonucleotide": "CCCTAAGC", "E-score": -0.214}
{"Oligonucleotide": "TCGATACA", "E-score": 0.184}
{"Oligonucleotide": "CAAGCGTG", "E-score": -0.014}
{"Oligonucleotide": "CAAAATAC", "E-score": 0.293}
{"Oligonucleotide": "AGCCCTAC", "E-score": -0.0624}
{"Oligonucleotide": "CGTTCGCC", "E-score": -0.121}
{"data": "Sample 3", "target": "Histone acetyltransferase KAT6A, winged helix 2, GST fusion (KAT6A, Homo sapiens, UniProt Q92794, residues 85-181)", "method": "protein binding microarray", "form": "double-stranded DNA, one strand shown", "medium": "in vitro", "tested at": "not given", "setting": "8-mer, flanks averaged, mean of 2 arrays, mostly near background", "reference": "not given", "reading": "higher = stronger binding", "Residues (chain)": "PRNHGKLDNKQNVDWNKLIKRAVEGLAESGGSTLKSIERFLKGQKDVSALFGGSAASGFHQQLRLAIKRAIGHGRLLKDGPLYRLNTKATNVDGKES"}
{"Oligonucleotide": "CCGATTTC", "E-score": -0.0586}
{"Oligonucleotide": "CGGGAAAA", "E-score": 0.151}
{"Oligonucleotide": "AATGGTGT", "E-score": -0.0926}
{"Oligonucleotide": "ATTCCATA", "E-score": 0.00466}
{"Oligonucleotide": "CTTAGATC", "E-score": 0.0128}
{"Oligonucleotide": "ATTGGTAC", "E-score": -0.112}
{"Oligonucleotide": "ATCGCTAG", "E-score": 0.0716}
{"Oligonucleotide": "CGGAGCAC", "E-score": 0.0921}
{"Oligonucleotide": "GGCGGTTA", "E-score": -0.00322}
{"Oligonucleotide": "ACCGGAAT", "E-score": -0.203}
{"Oligonucleotide": "CATGACGA", "E-score": 0.106}
{"Oligonucleotide": "ATATTAGA", "E-score": 0.0352}
{"Oligonucleotide": "CTTTGAAA", "E-score": 0.1}
{"Oligonucleotide": "GTTGTCTA", "E-score": -0.0704}
{"Oligonucleotide": "CGGCAAGC", "E-score": 0.113}
{"Oligonucleotide": "ACTACAGT", "E-score": -0.0829}
{"Oligonucleotide": "CATTTAGG", "E-score": -0.197}
{"Oligonucleotide": "ACCATAAG", "E-score": -0.179}
{"Oligonucleotide": "ATGTAAGC", "E-score": -0.0665}
{"Oligonucleotide": "CCTTAGAG", "E-score": -0.0432}
{"Oligonucleotide": "CCCACCTC", "E-score": -0.0475}
{"Oligonucleotide": "GCTCTGTA", "E-score": 0.00163}
{"data": "Sample 4", "target": "ABI1, truncated, D143A, DHFR fusion (Arabidopsis thaliana)", "method": "DHFR PCA, deep sequencing", "medium": "yeast", "setting": "methotrexate growth selection, single substitutions", "with": "(+)-ABA 17 µM", "reference": "wild-type fitted maximum", "reading": "higher = stronger binding", "parent": "PYL1, truncated, DHFR fusion (Arabidopsis thaliana); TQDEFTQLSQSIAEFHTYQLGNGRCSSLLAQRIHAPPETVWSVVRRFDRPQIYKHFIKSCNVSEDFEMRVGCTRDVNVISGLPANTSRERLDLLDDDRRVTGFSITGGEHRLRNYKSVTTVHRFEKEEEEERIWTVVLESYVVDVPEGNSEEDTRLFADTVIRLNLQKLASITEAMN"}
{"Change": "T101W", "relative binding score": "-0.162%"}
{"Change": "L112K", "relative binding score": "-1.56%"}
{"Change": "Q19F", "relative binding score": "62.7%"}
{"Change": "L138K", "relative binding score": "-12.8%"}
{"Change": "L29A", "relative binding score": "28.9%"}
{"Change": "S104H", "relative binding score": "13.8%"}
{"Change": "R69S", "relative binding score": "77.2%"}
{"Change": "T39Y", "relative binding score": "69%"}
{"Change": "L169M", "relative binding score": "21.9%"}
{"Change": "R32D", "relative binding score": "48.5%"}
{"Change": "T135Q", "relative binding score": "29.4%"}
{"Change": "E147P", "relative binding score": "88.5%"}
{"Change": "Q31K", "relative binding score": "76.3%"}
{"Change": "I105F", "relative binding score": "-8.92%"}
{"Change": "W134N", "relative binding score": "77.1%"}
{"Change": "V142L", "relative binding score": "50%"}
{"Change": "V76N", "relative binding score": "9.35%"}
{"Change": "S9L", "relative binding score": "62.3%"}
{"data": "Sample 5", "target": "PABPC1L2, full length, GST fusion (mouse, UniProt A0ABA7IW68)", "method": "RNAcompete", "form": "RNA", "medium": "in vitro", "tested at": "20 nM", "setting": "7-mer, probes averaged, single round", "reference": "mean of 7-mers", "reading": "higher = stronger binding", "Construct (chain)": "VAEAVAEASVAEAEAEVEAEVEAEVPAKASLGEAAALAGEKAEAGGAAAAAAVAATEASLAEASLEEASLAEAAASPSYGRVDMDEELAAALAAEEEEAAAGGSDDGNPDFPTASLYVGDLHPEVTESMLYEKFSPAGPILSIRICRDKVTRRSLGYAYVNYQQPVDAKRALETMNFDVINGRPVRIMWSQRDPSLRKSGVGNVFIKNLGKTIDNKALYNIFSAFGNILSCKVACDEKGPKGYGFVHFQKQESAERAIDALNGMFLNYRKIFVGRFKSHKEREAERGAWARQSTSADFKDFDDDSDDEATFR"}
{"Oligonucleotide": "CUGUUAA", "7-mer Z-score": -0.242}
{"Oligonucleotide": "AGAACUC", "7-mer Z-score": -0.18}
{"Oligonucleotide": "AGAGUAA", "7-mer Z-score": 0.017}
{"Oligonucleotide": "ACGUUGC", "7-mer Z-score": -0.162}
{"Oligonucleotide": "CAUAGGG", "7-mer Z-score": 0.0587}
{"Oligonucleotide": "GGACCAC", "7-mer Z-score": 0.187}
{"Oligonucleotide": "CUGCAGA", "7-mer Z-score": -0.124}
{"Oligonucleotide": "UGAAACU", "7-mer Z-score": -0.0446}
{"Oligonucleotide": "UCGACCC", "7-mer Z-score": -0.286}
{"Oligonucleotide": "GCAAAAU", "7-mer Z-score": 1.9}
{"Oligonucleotide": "ACCCAGG", "7-mer Z-score": -0.0101}
{"Oligonucleotide": "CGUGACA", "7-mer Z-score": -0.0971}
{"Oligonucleotide": "ACGUUUU", "7-mer Z-score": -0.393}
{"Oligonucleotide": "CCUGGAA", "7-mer Z-score": -0.0899}
{"Oligonucleotide": "CAAGUGU", "7-mer Z-score": -0.108}
{"Oligonucleotide": "AUUCGCA", "7-mer Z-score": -0.248}
{"Oligonucleotide": "AACGAUG", "7-mer Z-score": 0.196}
{"Oligonucleotide": "UGAAGCA", "7-mer Z-score": 0.155}
{"Oligonucleotide": "UGAGCGU", "7-mer Z-score": -0.293}
{"Oligonucleotide": "UGGGGAG", "7-mer Z-score": 0.211}
{"Oligonucleotide": "UGCAAAA", "7-mer Z-score": 2.86}
{"Oligonucleotide": "UGAGAAG", "7-mer Z-score": -0.0863}
{"Oligonucleotide": "UAGCUCC", "7-mer Z-score": -0.378}
{"note": "Repeated from above (sample 3):"}
{"Oligonucleotide": "GGCGGTTA", "E-score": -0.00322}
{"Oligonucleotide": "ATTCCATA", "E-score": 0.00466}
{"Oligonucleotide": "CGGCAAGC", "E-score": 0.113}
{"Oligonucleotide": "CTTAGATC", "E-score": 0.0128}
{"Oligonucleotide": "ATATTAGA", "E-score": 0.0352}
{"Oligonucleotide": "CTTTGAAA", "E-score": 0.1}
{"Oligonucleotide": "CCTTAGAG", "E-score": -0.0432}
{"Oligonucleotide": "AATGGTGT", "E-score": -0.0926}
